{"data": "Assay results pooled from the literature", "note": "A part holds a random share of what one study measured."}
{"data": "Block 1", "cell line": "sample D normal colon organoid", "technique": "CellTiter-Glo", "concentration": "1 µM", "setting": "mean of replicates", "reference": "DMSO"}
{"SMILES": "O=C(NS(=O)(=O)c1ccc(NCC2CCOCC2)c([N+](=O)[O-])c1)c1ccc(N2CCN(Cc3ccc(C(F)(F)F)cc3-c3ccc(Cl)cc3)CC2)cc1Oc1cnc2[nH]ccc2c1", "viability": "84.1%"}
{"SMILES": "CN(C)CC#Cc1ccc(OCCCc2sc(N3CCc4cccc(C(=O)Nc5nc6ccccc6s5)c4C3)nc2C(=O)O)c(F)c1", "viability": "82.2%"}
{"SMILES": "Cc1nc(N2CC[C@@H](O)C2)ncc1-c1cc(C(F)(F)F)cc2[nH]ncc12", "viability": "89.2%"}
{"SMILES": "CCNC(=O)c1cc2c(N3CCOC[C@@H]3C)ccnc2[nH]1", "viability": "111%"}
{"SMILES": "CNCc1ccccc1-c1csc([C@@H](C)Nc2nc(C)nc3cc(OC)c(OC)cc23)c1", "viability": "65.9%"}
{"SMILES": "Cc1c(NC(=O)c2ccc(C(C)(C)C)cc2)cccc1-c1cn(C)c(=O)c(Nc2ccc(C(=O)N3CCOCC3)cc2)n1", "viability": "82.9%"}
{"SMILES": "CC(=O)C1=C(C)N(c2cccc(C(F)(F)F)c2)C(=O)N[C@@H]1c1ccc(C#N)nc1", "viability": "112%"}
{"SMILES": "CCOCCn1cc(C(=O)Nc2ccc(-n3nc(-c4cccnc4)cc3C(F)(F)F)cn2)ccc1=O", "viability": "100%"}
{"data": "Block 2", "cell line": "HaCaT", "concentration": "100 µM", "time": "60 h"}
{"Structure (SMILES)": "O=C(O)CCCNC(=O)c1cccnc1", "viability [%]": 147}
{"Structure (SMILES)": "CCN(Cc1ccncc1)C(=O)C(CO)c1ccccc1 (centres unmarked)", "viability [%]": 142}
{"Structure (SMILES)": "O=C(O)c1cn(-c2ccc(F)cc2)c2cc(N3CCNCC3)c(F)cc2c1=O", "viability [%]": 152}
{"Structure (SMILES)": "NC[C@H]1O[C@H](O[C@H]2[C@H](O)[C@@H](O[C@H]3O[C@H](CO)[C@@H](O)[C@H](N)[C@H]3O)[C@H](N)C[C@@H]2N)[C@H](N)C[C@@H]1O", "viability [%]": 135}
{"Structure (SMILES)": "CN1C(C)(C)CCCC1(C)C", "viability [%]": 124}
{"Structure (SMILES)": "CC(=O)CCCCn1c(=O)c2c(ncn2C)n(C)c1=O", "viability [%]": 88.4}
{"data": "Block 3", "species": "mouse", "medium": "microsomes or S9", "concentration": "2 µM", "time": "0.5 h"}
{"Structure (SMILES)": "COCCN(Cc1ccc(C)c(Br)c1)S(=O)(=O)c1ccc2[nH]c(=O)ccc2c1", "remaining compound [%]": 0.213}
{"Structure (SMILES)": "O=c1cc(-c2ccc(F)cc2)ncn1C1CCCC1", "remaining compound [%]": 0.304}
{"Structure (SMILES)": "CC(C)n1nc(CNc2ccc(Cl)cc2)[nH]c1=O", "remaining compound [%]": 90.6}
{"Structure (SMILES)": "CN(C)S(=O)(=O)c1cc2c(cc1NC1CCCC1)Oc1ccccc1NC2=O", "remaining compound [%]": 92.8}
{"Structure (SMILES)": "Cc1c(C(=O)O)[nH]c(S(=O)(=O)NCCO)c1C", "remaining compound [%]": 38}
{"Structure (SMILES)": "Cc1ccc(N(C(C)C(=O)N2CCN(C)CC2)S(C)(=O)=O)cc1C (centres unmarked)", "remaining compound [%]": 41.5}
{"Structure (SMILES)": "CCN(c1ccc2c(c1)OCO2)c1cc(Cl)nc(Cl)n1", "remaining compound [%]": 67.5}
{"Structure (SMILES)": "CC(Nc1ccn(CCS(C)(=O)=O)n1)c1nc(C(C)(C)C)no1 (centres unmarked)", "remaining compound [%]": 62.5}
{"Structure (SMILES)": "O=C(Cc1ccc(N(Cc2ccccc2)C(=O)C2CCCC2)cc1)NCc1ccco1", "remaining compound [%]": 4.28}
{"Structure (SMILES)": "Cc1csc(C2=C(N)N(CC(C)C)CC2=O)n1", "remaining compound [%]": 26.6}
{"data": "Block 4", "target": "3-phosphoinositide-dependent protein kinase 1 (PDPK1, Homo sapiens, UniProt O15530)", "observed": "enzyme activity", "mode": "inhibitor", "concentration": "0.5 µM", "reference": "control", "UniProt O15530, sequence (whole entry, looked up)": "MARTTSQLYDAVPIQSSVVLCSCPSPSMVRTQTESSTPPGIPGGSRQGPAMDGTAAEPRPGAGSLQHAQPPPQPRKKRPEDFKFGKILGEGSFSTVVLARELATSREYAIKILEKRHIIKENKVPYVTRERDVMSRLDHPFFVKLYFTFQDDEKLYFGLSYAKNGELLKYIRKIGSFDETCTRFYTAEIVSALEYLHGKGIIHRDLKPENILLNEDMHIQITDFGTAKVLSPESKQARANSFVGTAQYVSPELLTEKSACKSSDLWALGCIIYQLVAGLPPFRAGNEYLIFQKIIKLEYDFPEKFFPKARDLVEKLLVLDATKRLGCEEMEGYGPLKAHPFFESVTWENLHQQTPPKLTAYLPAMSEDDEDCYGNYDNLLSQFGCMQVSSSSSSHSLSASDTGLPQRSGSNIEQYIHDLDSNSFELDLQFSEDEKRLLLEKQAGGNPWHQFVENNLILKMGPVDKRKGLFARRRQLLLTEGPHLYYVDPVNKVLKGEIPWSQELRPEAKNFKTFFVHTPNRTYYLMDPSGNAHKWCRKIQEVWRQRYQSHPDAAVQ"}
{"SMILES": "O=C1NC(=O)C(c2cn(CCCO)c3ncccc23)=C1c1cnccn1", "remaining activity [%]": 92.2}
{"SMILES": "N#CC(C#N)=C(N)/C(C#N)=C/c1ccc(O)cc1", "remaining activity [%]": 99.4}
{"SMILES": "Cc1nc(-c2ccccc2)c(-c2ccncc2)o1", "remaining activity [%]": 96.9}
{"SMILES": "Cn1sc(=O)n(Cc2ccccc2)c1=O", "remaining activity [%]": 95.5}
{"SMILES": "COc1ccc(C(=O)Nc2sc3c(c2C(N)=O)CCCC3)cc1OC", "remaining activity [%]": 87.8}
{"SMILES": "CN(C)c1ccc(C=C2C(=O)Nc3ccccc32)cc1", "remaining activity [%]": 82.3}
{"SMILES": "COc1ccc(OC)c2c(=S)c3ccccc3[nH]c12", "remaining activity [%]": 94.9}
{"SMILES": "CO[C@H]1C[C@@H]2CC[C@@H](C)[C@@](O)(O2)C(=O)C(=O)N2CCCC[C@H]2C(=O)O[C@H]([C@H](C)C[C@@H]2CC[C@@H](O)[C@H](OC)C2)CC(=O)[C@H](C)/C=C(\\C)[C@@H](O)[C@@H](OC)C(=O)[C@H](C)C[C@H](C)/C=C/C=C/C=C/1C", "remaining activity [%]": 92.6}
{"SMILES": "O=c1c2ccccc2[nH]c(=S)n1CCN1CCC(=C(c2ccc(F)cc2)c2ccc(F)cc2)CC1", "remaining activity [%]": 99.2}
{"SMILES": "Nc1[nH]nc2nc3ccccc3nc12", "remaining activity [%]": 96.8}
{"SMILES": "COc1ccc(CNC(=O)Nc2ncc([N+](=O)[O-])s2)cc1", "remaining activity [%]": 90}
{"SMILES": "O=C(Nc1cccc(Nc2cc(Nc3cccc(C(F)(F)F)c3)ncn2)c1)C1CC1", "remaining activity [%]": 100}
{"SMILES": "O=C1NC(=O)C(c2cn(CCCn3ccnc3)c3ccccc23)=C1Nc1ccccc1", "remaining activity [%]": 80.3}
{"SMILES": "Nc1ncnc2n[nH]c(Nc3ccc(F)cc3)c12", "remaining activity [%]": 102}
